Results from different studies.
Each line is one published result; not all experiments were run side by side.
Route: oral

| Structure (SMILES) | species | medium | dose | setting | Cmax |
| --- | --- | --- | --- | --- | --- |
| Cc1c(Cl)c(C)[n+]([O-])c(Cl)c1-c1noc(-c2cc(O)c(O)c([N+](=O)[O-])c2)n1 | male human | plasma | 25 mg | single dose, fasted, healthy volunteers, tablet | 0.97 µg/mL |
| C#C[C@]1(CO)O[C@@H](n2cnc3c(N)nc(F)nc32)C[C@@H]1O | human | plasma | 30 mg | single dose, fed | 0.542 µM |
| O=C(CCCCCCC(=O)Nc1ccccc1)NO | human | serum | 1000 mg | patients | 8.74 µM |
| CN1CC[C@@H](NC(=O)Nc2ccc(C#N)cc2)C[C@@H]1c1nc2ccccc2[nH]1 | human | plasma | 50 mg | single dose, patients | 0.321 µg/mL |
| Nc1ccc(-c2nc([C@H]3CCc4cc(-c5cc(Cl)ccc5-n5cnnn5)cc(=O)n43)c(F)[nH]2)c(F)n1 | human | plasma | 80 mg | single dose, fed | 0.537 µg/mL |
| O=C(c1nc2n(n1)[C@H](c1ccccc1)C[C@@H]2F)C1CC1 | human | plasma | 5 mg | single dose, fasted, healthy volunteers | 0.0986 µg/mL |
| COc1cccc(-c2ccc(NC(=O)C3=C(C(=O)O)CCC3)c(F)c2)c1 | male human | plasma | 30 mg | single dose, fasted, healthy volunteers | 4.94 µg/mL |
| CNC(=O)c1ccccc1Sc1ccc2c(/C=C/c3ccccn3)n[nH]c2c1 | human | plasma | 5 mg | single dose, fed | 0.017 µg/mL |
| CS(=O)(=O)n1cc2c(n1)CN([C@H]1CO[C@H](c3cc(F)ccc3F)[C@@H](N)C1)C2 | male human | plasma | 50 mg | single dose, fasted | 1.71 µM |
| Cc1[nH]c2ccccc2c1CCNCc1ccc(/C=C/C(=O)NO)cc1 | human | plasma | 20 mg | single dose, fed | 0.012 µg/mL |
| C[C@@H]1CCC[C@H](n2cnc(-c3cc(Cl)ccc3-n3cc(Cl)nn3)cc2=O)c2cc(ccn2)-c2c(cnn2C(F)F)NC1=O | human | plasma | 200 mg | single dose, fasted, healthy volunteers | 1.07 µg/mL |
| C[C@H](N)C(=O)N1C[C@H](CCCB(O)O)[C@](N)(C(=O)O)C1 | human | plasma | 75 mg twice daily | multiple doses, patients | 1.94 µg/mL |
| Nc1ncc(-c2cnn(CCO)c2)c2scc(-c3ccc(NC(=O)Nc4cccc(F)c4)cc3)c12 | human | plasma | 340 mg | patients | 0.593 µg/mL |
| CC(C)[C@@H](CS(=O)(=O)C(C)C)N1C(=O)[C@@](C)(CC(=O)O)C[C@H](c2cccc(Cl)c2)[C@H]1c1ccc(Cl)cc1 | human | plasma | 60 mg | single dose, fasted, tablet | 0.431 µg/mL |
| CC(C)(O)c1ccccc1-c1ccc2[nH]c(/C=C/c3ccc(C(F)(F)F)cc3)nc2c1 | male human | plasma | 1 mg | single dose, fasted, healthy volunteers | 0.006 µg/mL |
| COc1cc(C(=O)NC2CCN(C)CC2)c(F)cc1Nc1ncc(C(F)(F)F)c(Oc2cccc3c2C(=O)N(C)C3)n1 | human | plasma | 200 mg once daily | multiple doses, steady state, patients | 2.75 µM |
| Nc1cc(F)ccc1NC(=O)c1ccc(CNC(=O)/C=C/c2cccnc2)cc1 | human | plasma | 40 mg | patients | 0.59 µg/mL |
| CC[C@@]1(O)C(=O)OCc2c1cc1n(c2=O)Cc2cc3c(CN(C)C)c(O)ccc3nc2-1 | human | plasma | 4 mg | patients | 0.00929 µg/mL |
| CCCCCN1C[C@H](O)[C@@H](O)[C@H](O)[C@@H]1CO | male human | plasma | 10 mg | single dose, fasted, healthy volunteers | 0.0998 µg/mL |
| CNCc1ccc(-c2[nH]c3cc(F)cc4c3c2CCNC4=O)cc1 | human | plasma | 600 mg | multiple doses, twice daily, steady state, patients | 2.42 µg/mL |
| CCCOc1ccc([C@H]2CNC(=O)N2c2ccc3[nH]cnc3c2)cc1 | human | plasma | 10 mg | single dose, fasted | 0.0362 µg/mL |
| C[C@H]1CO[C@@H]2Cn3cc(C(=O)NCc4ccc(F)cc4F)c(=O)c(O)c3C(=O)N12 | human | plasma | 30 mg | single dose, fed | 3.95 µg/mL |
| CCOc1cc([C@@H](CS(C)(=O)=O)N2C(=O)c3cccc(NC(C)=O)c3C2=O)ccc1OC | male human | plasma | 20 mg | single dose, healthy volunteers | 0.246 µg/mL |
| CC#CC(=O)N[C@H]1CCCN(c2c(F)cc(C(N)=O)c3[nH]c(C)c(C)c23)C1 | human | plasma | 0.3 mg | single dose | 0.0017 µg/mL |
| CNC(=O)c1ccc(-c2cnc3ncc(Cc4ccc5ncccc5c4)n3n2)cc1F | human | plasma | 450 mg twice daily | multiple doses, steady state, patients | 3.2 µg/mL |
| CNc1nc(Nc2ccc(-n3cnc(C)n3)c(OC)c2)nc2c1CC[C@H]2c1ccc(F)cc1 | human | plasma | 200 mg | multiple doses, once daily | 1.98 µg/mL |
| C[C@@H](N)c1cc(Cl)ccc1Cn1c(=S)[nH]c(=O)c2[nH]ccc21 | human | plasma | 10 mg | multiple doses, once daily, healthy volunteers | 0.0806 µM |

Some of these lines once more:
| Structure (SMILES) | species | medium | dose | setting | Cmax |
| --- | --- | --- | --- | --- | --- |
| CC[C@@]1(O)C(=O)OCc2c1cc1n(c2=O)Cc2cc3c(CN(C)C)c(O)ccc3nc2-1 | human | plasma | 4 mg | patients | 0.00929 µg/mL |
| O=C(c1nc2n(n1)[C@H](c1ccccc1)C[C@@H]2F)C1CC1 | human | plasma | 5 mg | single dose, fasted, healthy volunteers | 0.0986 µg/mL |
| Nc1ccc(-c2nc([C@H]3CCc4cc(-c5cc(Cl)ccc5-n5cnnn5)cc(=O)n43)c(F)[nH]2)c(F)n1 | human | plasma | 80 mg | single dose, fed | 0.537 µg/mL |
